Results gathered from unrelated publications.
Lines come from different studies, so protocols differ.
Chain of UniProt Q9UJQ4 (whole entry, looked up): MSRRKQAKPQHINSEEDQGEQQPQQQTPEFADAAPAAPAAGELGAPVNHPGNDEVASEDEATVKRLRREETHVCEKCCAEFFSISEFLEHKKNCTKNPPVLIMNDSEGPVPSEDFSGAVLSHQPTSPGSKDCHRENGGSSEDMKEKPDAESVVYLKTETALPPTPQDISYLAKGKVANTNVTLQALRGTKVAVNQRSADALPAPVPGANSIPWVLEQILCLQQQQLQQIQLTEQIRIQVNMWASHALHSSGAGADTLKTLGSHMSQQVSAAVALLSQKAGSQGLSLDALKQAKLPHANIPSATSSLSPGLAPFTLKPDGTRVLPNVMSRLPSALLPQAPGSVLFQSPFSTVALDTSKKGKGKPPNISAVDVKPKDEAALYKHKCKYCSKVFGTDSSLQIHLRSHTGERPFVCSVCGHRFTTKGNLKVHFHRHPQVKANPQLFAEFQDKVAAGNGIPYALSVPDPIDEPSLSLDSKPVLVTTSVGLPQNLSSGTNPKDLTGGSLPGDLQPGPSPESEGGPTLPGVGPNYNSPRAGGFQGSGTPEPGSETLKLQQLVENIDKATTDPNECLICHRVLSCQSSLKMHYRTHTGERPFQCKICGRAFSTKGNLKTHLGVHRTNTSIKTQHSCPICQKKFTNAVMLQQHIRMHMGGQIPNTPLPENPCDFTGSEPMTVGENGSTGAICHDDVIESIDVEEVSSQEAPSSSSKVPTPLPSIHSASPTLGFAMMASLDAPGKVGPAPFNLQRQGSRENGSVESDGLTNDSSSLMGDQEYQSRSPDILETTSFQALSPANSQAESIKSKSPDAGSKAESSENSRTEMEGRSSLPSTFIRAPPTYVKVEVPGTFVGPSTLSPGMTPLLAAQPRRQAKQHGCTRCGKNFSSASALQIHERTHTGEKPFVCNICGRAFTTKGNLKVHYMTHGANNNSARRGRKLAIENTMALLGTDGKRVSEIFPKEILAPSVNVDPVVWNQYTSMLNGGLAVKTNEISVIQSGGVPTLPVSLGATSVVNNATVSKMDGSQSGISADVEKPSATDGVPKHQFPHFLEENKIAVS
Chain of UniProt Q14653 (whole entry, unmodified, looked up): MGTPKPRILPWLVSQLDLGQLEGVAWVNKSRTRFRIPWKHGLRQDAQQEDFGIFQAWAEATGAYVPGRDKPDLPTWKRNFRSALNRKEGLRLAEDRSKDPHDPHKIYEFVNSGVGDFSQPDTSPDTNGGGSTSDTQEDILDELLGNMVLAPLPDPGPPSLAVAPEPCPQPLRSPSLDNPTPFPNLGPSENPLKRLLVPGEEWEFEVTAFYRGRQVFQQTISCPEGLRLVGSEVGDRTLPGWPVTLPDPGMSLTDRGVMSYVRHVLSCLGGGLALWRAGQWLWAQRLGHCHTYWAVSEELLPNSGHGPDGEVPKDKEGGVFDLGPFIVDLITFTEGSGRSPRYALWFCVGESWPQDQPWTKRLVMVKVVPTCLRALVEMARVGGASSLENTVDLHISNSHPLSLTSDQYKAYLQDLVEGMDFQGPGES

TAAAAATA  E-score (Sal-like protein 4, full length isoform A (SALL4, Homo sapiens, UniProt Q9UJQ4, residues 1-1053); universal PBM; double-stranded DNA, one strand shown, in vitro; 600 nM, 8-mer, flanks averaged, mean of replicates; higher = stronger binding): 0.402
PhoQ, residues 284 288 289 292 302 303 QWQEDG  fold induction (PhoP, residues 12 14 15 18 19 GQAIL (Escherichia coli, UniProt P23836); Sort-seq, measured: YFP reporter; E. coli; PhoQ-PhoP variant library, together with: 10 µM Mg2+; reference: high Mg2+ state, higher = stronger signaling): 2.41
GCCTAGCACGACGGACTGGAGTTTCGGGACGTGCTAGTCTTGATTCGCTTGACGCTGCTG  log fluorescence (Interferon regulatory factor 5, full length, phosphomimetic (IRF5, Homo sapiens, UniProt Q13568-2, residues 1-514, K96S/S451D/S453D/S456D/S462D); protein-binding microarray; double-stranded DNA, one strand shown, in vitro; 250 nM, 60-bp whole probe, together with: salmon DNA 0.4 mg/ml; reference: random background probes, higher = stronger binding): 3.28 z-score
AAGAGTTA  E-score (Histone acetyltransferase KAT6A, both winged helices, GST fusion (KAT6A, Homo sapiens, UniProt Q92794, residues 1-181); protein binding microarray; double-stranded DNA, one strand shown, in vitro; not given, 8-mer, flanks averaged, mean of 2 arrays, mostly near background; reference: not given, higher = stronger binding): -0.203
GCCTAGCACTCAATATTGAGACTCATACTGTGCTAGGTCTTGATTCGCTTGACGCTGCTG  fitted relative affinity (Interferon regulatory factor 3, full length, phosphomimetic (IRF3, Homo sapiens, UniProt Q14653, residues 1-427, S386D/S396D/S398D/S402D/T404D/S405D); protein-binding microarray; double-stranded DNA, one strand shown, in vitro; 2540 nM top, 60-bp whole probe, together with: salmon DNA 0.4 mg/ml; reference: random background probes, higher = stronger binding): 0.176 z-score
CAATGTCA  E-score (Histone acetyltransferase KAT6A, winged helix 1, GST fusion (KAT6A, Homo sapiens, UniProt Q92794, residues 1-85); protein binding microarray; double-stranded DNA, one strand shown, in vitro; not given, 8-mer, flanks averaged, mean of 2 arrays, mostly near background; reference: not given, higher = stronger binding): -0.0544
